Measurements collected from several papers.
Each line is one published result; not all experiments were run side by side. “And” joins repeats or separate records; there may be more than shown. ± gives the spread as reported.
UCHL1: Ubiquitin carboxyl-terminal hydrolase isozyme L1 (UCHL1, Homo sapiens, UniProt P09936)
UniProt P09936, sequence (whole entry, looked up): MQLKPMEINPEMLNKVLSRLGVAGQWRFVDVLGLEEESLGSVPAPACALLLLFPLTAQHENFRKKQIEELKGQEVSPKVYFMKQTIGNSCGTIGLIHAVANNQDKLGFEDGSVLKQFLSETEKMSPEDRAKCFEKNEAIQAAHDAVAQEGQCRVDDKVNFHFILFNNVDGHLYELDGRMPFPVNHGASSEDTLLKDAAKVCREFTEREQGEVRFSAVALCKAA
UniProt Q07794, sequence (whole entry, looked up): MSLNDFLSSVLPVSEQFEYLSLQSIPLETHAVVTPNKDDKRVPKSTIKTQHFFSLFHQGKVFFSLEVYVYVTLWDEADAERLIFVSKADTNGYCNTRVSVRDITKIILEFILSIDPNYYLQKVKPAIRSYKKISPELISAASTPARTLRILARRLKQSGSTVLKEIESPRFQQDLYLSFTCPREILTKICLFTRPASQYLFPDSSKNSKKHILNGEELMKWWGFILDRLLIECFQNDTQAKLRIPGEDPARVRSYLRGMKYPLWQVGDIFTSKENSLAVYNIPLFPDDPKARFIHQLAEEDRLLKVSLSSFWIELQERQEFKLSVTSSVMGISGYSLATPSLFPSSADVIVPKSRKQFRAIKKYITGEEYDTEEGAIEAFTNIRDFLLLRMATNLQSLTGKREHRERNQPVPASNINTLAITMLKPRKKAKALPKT

SMILES = CCn1cc(-c2cc(Cn3ccnc3)cc3c2CCN([C@H](c2cc(OC)ccn2)C2CC2)C3=O)c(C(F)(F)F)n1; tested on = SBC-5; test = cell growth, inhibitor; conditions = 120 h; measurement = EC50; value = 28.3 µM
SMILES = CC(C)(C)C(=O)Oc1ccc(S(=O)(=O)Nc2ccccc2C(=O)NCC(=O)O)cc1; tested on = human peripheral blood neutrophils; test = flow cytometry FSC/SSC; conditions = 50 µM, together with: C5a 100 ng/mL, MPO-ANCA immune complex; how to read = baseline: unstimulated neutrophils; measurement = neutrophil swelling; value = 3.28 fold change and 3.46 fold change and 2.98 fold change and 3.41 fold change
SMILES = COc1cc(N2CCC(N3CCN(C)CC3)CC2)ccc1Nc1ncc(Cl)c(Nc2ccccc2P(C)(C)=O)n1; tested on = Ba/F3 EML4-ALK variant 1 S1206Y; test = cell viability; measurement = Emax; value = 100%
SMILES = COc1ccc(NC(=O)c2c(Nc3ccccc3)sc(C#N)c2NC(=O)CNc2ccc(Cl)cc2)cc1; tested on = HepG2; test = flow cytometry; conditions = IC50, 24 h; measurement = cells in G1; value = 45.4 ± 5.12%
SMILES = Cc1[nH]c2ccccc2c1CCNCc1ccc(/C=C/C(=O)NO)cc1; tested on = A2780/CP; test = annexin V/PI flow cytometry; conditions = concentration not given, 48 h; how to read = baseline: untreated; measurement = late apoptotic cells; value = 0.2%
SMILES = CCCN1CCN(c2ccc3[nH]c(-c4ccc5[nH]c(-c6ccc(C(F)(F)F)cc6)nc5c4)nc3c2)CC1; tested on = Malme-3M; test = SRB; conditions = 10 µM, 48 h; measurement = growth percent; value = -64.7%
SMILES = CC/C(=N\NC(=O)NCc1cccc(O)c1)c1ccc(O)c(C)c1O; tested on = SK-OV-3; test = microarray, item: JUNB; test system = 3D culture in gellan gum; conditions = 10 µM, 24 h; how to read = baseline: DMSO; measurement = log ratio of mRNA level; value = -2.77
SMILES = CCn1cc(-c2cc(Cn3ccoc3=N)cc3c2CCN([C@@H](C)c2cc(OC)ccn2)C3=O)c(C(F)(F)F)n1; tested on = U266B1; test = cell growth; conditions = 120 h; measurement = EC50; value = > 30 µM
SMILES = Nc1ncnc2c1ncn2[C@@H]1O[C@H](CO)[C@@H](O)[C@H]1O; tested on = activated human T cells; conditions = 316 nM; how to read = higher = more IFNγ; measurement = IFNγ production; value = 485 a.u. and 365 a.u. and 353 a.u.
SMILES = Cc1cccc(-c2[nH]c(CNc3ccccc3F)nc2-c2ccc3ncnn3c2)n1; tested on = MM1.S pomalidomide-resistant; test = XTT; conditions = 0.5 µM; how to read = baseline: untreated; measurement = viability; value = 98%
SMILES = CC1(C)CCC(CN2CCN(c3ccc(C(=O)NS(=O)(=O)c4ccc(NCC5CCOCC5)c([N+](=O)[O-])c4)c(Oc4cnc5[nH]ccc5c4)c3)CC2)=C(c2ccc(Cl)cc2)C1; tested on = THP-1; test = annexin V/PI flow cytometry, item: annexin V-/PI+; conditions = 0.2 µM, 24 h; measurement = necrotic cells; value = 0.1%
SMILES = Cn1cc(Nc2nccc(-c3ccc4c(c3)CN(C3COC3)CC[C@H]4NC(=O)c3cn(C(C)(C)C)nn3)n2)cn1; tested on = human B cells; conditions = 100 nM, 64 h, stimulation-downregulated genes, together with: CD40L, anti-IgM, IL-4; measurement = number of upregulated genes; value = 28
SMILES = C#CCOc1cc(C2CC(=O)Nc3ccsc32)ccc1OC (stereo not drawn); tested on = UCHL1; test = covalent, intact protein LC-MS; conditions = 12.5 µM; measurement = labelling; value = 17.4%
SMILES = O=C(Nc1nnc2[nH]c(=S)[nH]c(-c3ccc(Cl)cc3)c1-2)c1ccccc1; tested on = Malme-3M; test = SRB; conditions = 10 µM, NCI60 single-dose screen; how to read = baseline: untreated; measurement = cell growth; value = 89.1%
SMILES = COc1ccc([C@@H](O)c2cc(-c3ncnc4cc(N5CCOCC5)ccc34)c(F)cc2Cl)nn1; tested on = M12; test = clonogenic survival; conditions = 16 h, 50% unbound in medium; measurement = free concentration for maximal radiosensitization; value = 150 nM
SMILES = Fc1ccc(-c2nsc(Nc3ccccc3)n2)cc1; tested on = Histone acetyltransferase RTT109, with Vps75 (Saccharomyces cerevisiae, UniProt Q07794); test = enzyme activity, inhibitor, HTS, CPM-based, dose response; measurement = IC50; value = > 125 µM
SMILES = Cc1ccccc1NC(=O)C(C#N)=Cc1c(Cl)nc2ccccn12; tested on = UCHL1; test = covalent, intact protein LC-MS; conditions = 12.5 µM; measurement = labelling; value = 11.7%
SMILES = CC(=O)c1nn(-c2ccc(Cl)cc2)/c(=N/N=C(\C)c2ccc(NC(=O)c3ccc(Cl)cc3)cc2)s1; tested on = MCF7; conditions = 0.312 µM; measurement = viability; value = 99.9%
SMILES = Cn1cc(-n2cnc3c(NCc4nc5cc(Cl)c(Cl)cc5[nH]4)nc(N4CCOCC4)nc32)cn1; tested on = MDA-MB-468; test = cell viability, CellCounting-Lite; conditions = 2000 nM, 37 °C; how to read = higher = more viable cells; measurement = luminescence signal; value = 51100 a.u. and 50400 a.u. and 45100 a.u.
SMILES = COc1c(C)c(OCc2ccccc2)c(C)c(O)c1C(=O)/C=C/c1ccccc1; tested on = FaDu; test = SRB; how to read = baseline: normal over FaDu IC50; measurement = selectivity index; value = 1.62
SMILES = O=C(O)c1cccnc1Nc1cccc(C(F)(F)F)c1; tested on = MCF7; test = firefly luciferase reporter; conditions = 100 µM, 6 h; how to read = baseline: vehicle; measurement = TEAD reporter activity; value = 172 ± 5.5%
SMILES = CC[C@@H]([C@H](C)O)n1ncn(-c2ccc(N3CCN(c4ccc(OC[C@@H]5CO[C@@](Cn6cncn6)(c6ccc(F)cc6F)C5)cc4)CC3)cc2)c1=O; tested on = Trypanosoma cruzi; test = reporter translation, Renilla luciferase mRNA translation; test system = cell-free extract; conditions = 40 µM; how to read = baseline: DMSO; measurement = inhibition; value = -4.7%
SMILES = Cn1cc(-c2ccc(-c3cncc(Cl)c3N3CCC4(CCNC4=O)CC3)cc2)cn1; tested on = COLO 205; test = gene expression, microarray, item: LGALS1 mRNA; conditions = concentration not given, 6 h; how to read = baseline: untreated cells; measurement = log2 fold change; value = 4.24
SMILES = C=Cc1c2[n-]c(c1C)/C=c1\[n-]/c(c(C)c1C=C)=C\c1[n-]c(c(CCC(=O)O)c1C)/C=c1\[n-]c(c(C)c1CCC(=O)O)=C2.[Sn+4]; tested on = SH-SY5Y; test = RNA-seq, item: TFPI2 mRNA; conditions = 5 µM, 5 h; how to read = baseline: untreated cells; measurement = fold change; value = 2.59

Repeated from above:
SMILES = CCCN1CCN(c2ccc3[nH]c(-c4ccc5[nH]c(-c6ccc(C(F)(F)F)cc6)nc5c4)nc3c2)CC1; tested on = Malme-3M; test = SRB; conditions = 10 µM, 48 h; measurement = growth percent; value = -64.7%
SMILES = CC/C(=N\NC(=O)NCc1cccc(O)c1)c1ccc(O)c(C)c1O; tested on = SK-OV-3; test = microarray, item: JUNB; test system = 3D culture in gellan gum; conditions = 10 µM, 24 h; how to read = baseline: DMSO; measurement = log ratio of mRNA level; value = -2.77
SMILES = CCn1cc(-c2cc(Cn3ccoc3=N)cc3c2CCN([C@@H](C)c2cc(OC)ccn2)C3=O)c(C(F)(F)F)n1; tested on = U266B1; test = cell growth; conditions = 120 h; measurement = EC50; value = > 30 µM
SMILES = Nc1ncnc2c1ncn2[C@@H]1O[C@H](CO)[C@@H](O)[C@H]1O; tested on = activated human T cells; conditions = 316 nM; how to read = higher = more IFNγ; measurement = IFNγ production; value = 485 a.u. and 365 a.u. and 353 a.u.
